Published values pooled from the literature.
Lines come from different studies, so protocols differ. ± gives the spread as reported.

SMILES | target or system | assay | test system | conditions | measurement | value
COc1ccccc1CNC(=O)CSc1c[nH]c2ccccc12 | HEK293T | Gaussia luciferase expression | – | up to 10 µM, 24 h, without RdRp | reporter expression | no effect
CCCCCCCCCCCCCCCC(=O)N[C@@H](CCC(=O)NCCOCCOCCC(=O)NCCOCCOCCC(=O)NCCCC[C@H](NC(=O)[C@H](CC(=O)O)NC(=O)[C@H](CC(C)C)NC(=O)[C@H](Cc1ccc(O)cc1)NC(=O)[C@H](CCCCN)NC(=O)[C@H](CO)NC(=O)[C@H](Cc1ccc(O)cc1)NC(=O)[C@H](CC(=O)O)NC(=O)[C@H](CO)NC(=O)[C@@H](NC(=O)[C@H](Cc1ccccc1)NC(=O)[C@@H](NC(=O)CNC(=O)[C@H](CCC(N)=O)NC(=O)[C@@H](CO)NC(=O)[C@@H](N)Cc1c[nH]cn1)[C@@H](C)O)[C@@H](C)O)C(=O)N[C@@H](CCCNC(=N)N)C(=O)N[C@@H](CCCNC(=N)N)C(=O)N[C@@H](C)C(=O)N[C@@H](CCC(N)=O)C(=O)N[C@@H](CC(=O)O)C(=O)N[C@@H](Cc1ccccc1)C(=O)N[C@H](C(=O)N[C@@H](CCC(N)=O)C(=O)N[C@@H](Cc1c[nH]c2ccccc12)C(=O)N[C@@H](CC(C)C)C(=O)N[C@@H](CC(C)C)C(=O)N[C@@H](CC(N)=O)C(=O)N[C@H](C(=O)NCC(=O)NCC(=O)N1CCC[C@H]1C(=O)N[C@@H](CO)C(=O)N[C@@H](CO)C(=O)NCC(=O)N[C@@H](C)C(=O)N1CCC[C@H]1C(=O)N1CCC[C@H]1C(=O)N1CCC[C@H]1C(=O)N[C@@H](CO)C(N)=O)[C@@H](C)O)C(C)C)C(=O)O | – | – | Sprague-Dawley rat, female | subcutaneous, 500 µg/kg once daily, 14 days | urea | 3.73 ± 0.95 mmol/L
CC1COC2(OC3CC4C5CC(OC6OC(C)C(O)C(OC7OC(C)C(O)C(O)C7O)C6O)C6CC(O)CCC6(C)C5CCC4(C)C3C2C)C(O)C1 (stereo not shown) | HEK293T | entry of SARS-CoV-2 spike pseudotyped lentivirus | – | 10 µM | inhibition | 50 to 90%
Cc1cc(/C=C/C#N)cc(C)c1Nc1nc(Nc2ccc(C#N)cc2)ncc1N | HIV-1 | viral replication, single-round infection | RT mutant M184I | – | EC50 | 0.00012 ± 3e-05 µM
CSCC[C@@H]1NC(=O)CNC(=O)[C@H](CCC(=O)O)NC(=O)[C@@H]2CSSC[C@H](NC(=O)[C@@H](N)Cc3ccc(O)cc3)C(=O)N[C@@H](CCC(N)=O)C(=O)N[C@@H](CCCCN)C(=O)N[C@@H](Cc3c[nH]c4ccccc34)C(=O)N[C@@H](CCSC)C(=O)N[C@@H](Cc3c[nH]c4ccccc34)C(=O)N[C@@H]([C@@H](C)O)C(=O)N[C@H]3CSSC[C@H](NC(=O)[C@H](C(C)C)NC1=O)C(=O)N[C@@H](CCCNC(=N)N)C(=O)N[C@@H](CC(C)C)C(=O)N[C@@H](Cc1c[nH]c4ccccc14)C(=O)N[C@H](C(=O)N[C@@H](CCCCN)C(=O)N[C@@H](CCCCN)C(=O)N[C@@H](CCCCN)C(=O)N[C@@H](CC(C)C)C(=O)N[C@@H](Cc1c[nH]c4ccccc14)C(=O)O)CSSC[C@H](NC(=O)[C@H](CCCCN)NC(=O)[C@H](CCCNC(=N)N)NC(=O)[C@H](CCC(=O)O)NC(=O)[C@H](CO)NC(=O)[C@H](CC(=O)O)NC3=O)C(=O)N2 | ND7/23 | peak TTX-sensitive sodium current | – | 0.001 µM, 2 peak | inhibition | 6 ± 7%
C[C@@H]1Cc2ccc(C(=O)N[C@@H](Cc3ccccc3)C(=O)O)c(O)c2C(=O)O1 | HK-2 | – | – | – | IC50 | 38 µM
Cc1cccc(NC(=O)CSc2c[nH]c3ccccc23)c1 | HEK293T | Gaussia luciferase expression | – | up to 10 µM, 24 h, without RdRp | reporter expression | no effect
O=C(NNC(=S)Nc1ccc(Cl)c(Cl)c1)c1ccccn1 | Huh-7 | pseudovirus entry | – | added: MERS-CoV spike pseudovirus | EC50 | 1.1 µM
CC[C@@H](C)[C@@H](NC(=O)[C@@H](CCCCN)NC(=O)[C@@H](CCCCN)NC(=O)[C@@H](CC(C)C)NC(=O)[C@@H](Cc1c[nH]c2ccccc12)NC(=O)CN)C(=O)NCC(=O)N[C@H](CCCCN)C(=O)N[C@H](CCCCN)C(=O)N[C@@H](C(=O)N[C@H](CCC(=O)O)C(=O)N[C@H](CCCNC(=N)N)C(=O)N[C@@H](C(=O)NCC(=O)N[C@H](CCC(N)=O)C(=O)N[C@H](Cc1c[nH]cn1)C(=O)N[C@@H](C(=O)N[C@H](CCCNC(=N)N)C(=O)N[C@H](CC(=O)O)C(=O)N[C@H](C)C(=O)N[C@@H](C(=O)N[C@@H](C(=O)N[C@H](CCC(N)=O)C(=O)N[C@@H](C(=O)N[C@@H](C(=O)NCC(=O)N[C@@H](C(=O)N[C@H](C)C(=O)N[C@H](CCC(N)=O)C(=O)N[C@H](CCC(N)=O)C(=O)N[C@H](C)C(=O)N[C@H](C)C(=O)N[C@H](CC(N)=O)C(=O)N[C@@H](C(=O)N[C@H](C)C(=O)N[C@H](C)C(=O)N[C@@H](C(=O)N[C@H](CC(C)C)C(=O)N[C@H](CCCCN)C(N)=O)[C@H](C)O)C(C)C)C(C)C)[C@H](C)CC)[C@H](C)O)[C@H](C)CC)[C@H](C)O)[C@H](C)O)C(C)C)[C@H](C)CC | HepG2 | cytotoxicity, item: intracellular ATP | – | – | no-observed-effect concentration | 420 mg/L
CC(C)C[C@H](NC(=O)[C@H](CC(=O)O)NC(=O)[C@H](CCC(=O)O)NC(=O)[C@H](C)NC(=O)[C@H](CCC(=O)O)NC(=O)[C@H](Cc1c[nH]cn1)NC(=O)[C@H](CC(N)=O)NC(=O)[C@H](Cc1ccccc1)NC(=O)[C@H](Cc1ccccc1)NC(=O)[C@H](CC(=O)O)NC(=O)[C@H](CC(C)C)NC(=O)[C@H](Cc1ccccc1)NC(=O)[C@@H](N)[C@@H](C)O)C(=O)N[C@@H](Cc1ccccc1)C(=O)N[C@@H](CSCc1ccc(S(=O)(=O)F)cc1)C(=O)O | HEK293T-ACE2 | pseudovirus infection | – | concentration not given | inhibition | 100%
O=C(NNC(=S)Nc1ccc(C(F)(F)F)cc1)c1ccccn1 | Huh-7 | pseudovirus entry | – | added: MERS-CoV spike pseudovirus | EC50 | 0.91 µM
CCOc1cccc(NC(=O)CSc2cn(C(=O)OC(C)(C)C)c3ccccc23)c1 | HEK293T | Gaussia luciferase expression | – | up to 10 µM, 24 h, without RdRp | reporter expression | no effect
Cc1cc(/C=C/C#N)cc(C)c1-n1cnc2cnc(Nc3ccc(C#N)cc3)nc21 | HIV-1 | viral replication, single-round infection | RT mutant M184I | – | EC50 | 0.0002 ± 4e-05 µM

Repeated from above:
SMILES | target or system | assay | test system | conditions | measurement | value
COc1ccccc1CNC(=O)CSc1c[nH]c2ccccc12 | HEK293T | Gaussia luciferase expression | – | up to 10 µM, 24 h, without RdRp | reporter expression | no effect
